{"data": "Results gathered from unrelated publications", "note": "Protocols differ between the studies behind these lines. ± marks the error that the study gave."}
{"SMILES": "C=CC(=O)Nc1cccc(Cn2ncc3cnc(Nc4cnn(CCOC)c4)nc32)c1", "tested on": "VPS34 human", "test": "binding, KINOMEscan", "setting": "100 nM", "how to read": "lower = stronger binding", "measurement": "percent of control", "result": "21%"}
{"SMILES": "C=C(NC(=O)c1csc(-c2nc3c(cc2O)-c2nc(cs2)C(=O)NC(C(C)O)C(=O)NC(=C(C)OC)c2nc(cs2)C(=O)NC2c4nc(cs4)C(=O)NC(COC(=O)c4c5c6c(cccc6n4O)COC(=O)C(OC4CC(C)(O)C(N(C)C)C(C)O4)C2OC5)c2nc-3cs2)n1)C(N)=O (stereo not drawn)", "tested on": "Streptococcus pneumoniae", "system": "-25, immunocompromised mice, lung infection", "setting": "bid dosing", "measurement": "lung bacterial load at ED50", "result": "5.25 log CFU/g"}
{"SMILES": "O=C(N/N=C/c1ccc2c(ccc[n+]2Cc2ccccc2)c1)C(=O)N/N=C/c1ccc2c(ccc[n+]2Cc2ccccc2)c1", "tested on": "myc22 MYC G4-DNA parallel", "test": "FRET melting", "setting": "1 µM, K1 buffer, DNA 0.2 µM, together with: ds26 10 µM", "measurement": "ΔTm", "result": "4.8 ± 0.1 °C"}
{"SMILES": "CN1CCCNC(=O)c2cccc(c2)C(=O)NCCCN(C)CCCNc2cccc3c2C(=O)c2cccc(c2C3=O)NCCC1", "tested on": "SAS", "test": "RNA-Seq, refers to: SLC11A2 mRNA", "setting": "1 µM, 6 h", "how to read": "relative to: untreated cells", "measurement": "log2 fold change", "result": -1.23}
{"SMILES": "COc1cc(O)ccc1CCC(c1ccc(O)cc1)c1cc2c(c(C)c1O)OC(c1ccc(O)cc1)CC2 (mixture of isomers)", "system": "human blood", "setting": "0.3 µM, together with: A23187", "measurement": "EPA level", "result": "76700 ± 22000 pg/mL"}
{"SMILES": "Cc1ncsc1-c1ccc(C(C)NC(=O)C2CC(O)CN2C(=O)C(NC(=O)CCCCCCCCCCN2CCCC(Nc3ncc(Cl)c(Nc4ccccc4S(=O)(=O)C(C)C)n3)C2)C(C)(C)C)cc1 (stereo not drawn)", "tested on": "22Rv1", "test": "RNA-seq, refers to: PPWD1 mRNA", "setting": "concentration not given", "how to read": "relative to: DMSO", "measurement": "log2 fold change", "result": -1.79}
{"SMILES": "O=C(N/N=C/c1cc[n+](CC2CC2)c2ccccc12)N/N=C/c1cc[n+](CC2CC2)c2ccccc12", "tested on": "myc22 MYC G4-DNA parallel", "test": "FRET melting", "setting": "1 µM, K1 buffer, DNA 0.2 µM", "measurement": "ΔTm", "result": "7.7 ± 0.5 °C"}
{"SMILES": "Nc1ncc(-c2cc(-c3cnn(CC(F)(F)F)c3)ncc2F)nc1C(=O)NC1CNCC(F)C1 (stereo not drawn)", "tested on": "ULK2", "test": "KINOMEscan", "setting": "1 µM", "how to read": "relative to: DMSO control", "measurement": "remaining binding", "result": "67%"}
{"SMILES": "O=C(N/N=C/c1ccc(C[n+]2ccccc2)cc1)c1cncc(C(=O)N/N=C/c2ccc(C[n+]3ccccc3)cc2)n1", "tested on": "myc22 MYC G4-DNA parallel", "test": "FRET melting", "setting": "1 µM, K1 buffer, DNA 0.2 µM, together with: ds26 10 µM", "measurement": "ΔTm", "result": "9.5 ± 0.3 °C"}
{"SMILES": "COC1CN([C@H]2CC[C@H]([C@@]3(C)Oc4c(Cl)cc(C(=O)NCc5c(SC)cc(C)[nH]c5=O)c(C)c4O3)CC2)C1", "test": "RNA-seq, refers to: TRPV4", "system": "human, whole blood", "setting": "dose not given, 24 h", "how to read": "relative to: pretreatment baseline", "measurement": "log2 fold change", "result": 2.39}
{"SMILES": "CNS(=O)(=O)Nc1nccc(Cc2c(C)c3ccc(Oc4ncccc4F)cc3oc2=O)c1F", "tested on": "LN-18", "test": "cell viability", "setting": "7 days", "measurement": "IC50", "result": "> 1 µM"}
{"SMILES": "O=C(N/N=C/c1cc[n+](Cc2ccccc2)c2ccccc12)c1cc(C(=O)N/N=C/c2cc[n+](Cc3ccccc3)c3ccccc23)ncn1", "tested on": "myc22 MYC G4-DNA parallel", "test": "FRET melting", "setting": "1 µM, K1 buffer, DNA 0.2 µM, together with: ds26 10 µM", "measurement": "ΔTm", "result": "9.1 ± 0.2 °C"}
{"note": "Repeated from above:"}
{"SMILES": "CN1CCCNC(=O)c2cccc(c2)C(=O)NCCCN(C)CCCNc2cccc3c2C(=O)c2cccc(c2C3=O)NCCC1", "tested on": "SAS", "test": "RNA-Seq, refers to: SLC11A2 mRNA", "setting": "1 µM, 6 h", "how to read": "relative to: untreated cells", "measurement": "log2 fold change", "result": -1.23}
{"SMILES": "O=C(N/N=C/c1ccc2c(ccc[n+]2Cc2ccccc2)c1)C(=O)N/N=C/c1ccc2c(ccc[n+]2Cc2ccccc2)c1", "tested on": "myc22 MYC G4-DNA parallel", "test": "FRET melting", "setting": "1 µM, K1 buffer, DNA 0.2 µM, together with: ds26 10 µM", "measurement": "ΔTm", "result": "4.8 ± 0.1 °C"}
